Assay results pooled from the literature.
Compare with care: the assays were run in different laboratories. Numbers after ± are the reported error.

COc1ccc(C(N)=O)cn1  plasma concentration (Han Wistar rats, male, plasma; oral, 30 mg/kg, 0.50 h): 76.7 µM
Cc1cc(C(=O)NC(C)(C)CO)cc(C)n1  plasma peak area (LC-MS metabolite profiling; Sprague-Dawley rat, both sexes, plasma; oral, 100 mg/kg of parent drug, 0.25 (unit not given); higher = more metabolite): 189000 a.u.
O=S(=O)(c1ccc(-c2ccc3ncnc(Nc4ccc(OCc5cccc(F)c5)c(Cl)c4)c3c2)cc1)N1CCCCC1  EC50 (Leishmania major; intracellular amastigote growth, luciferase; RAW264.7 macrophages): > 15 µM
CCCCN1C(=O)c2cccc3c(NCCCCN4CCOCC4)ccc(c23)C1=O  Stokes shift (acetonitrile): 89 nm
N#C[C@@H]1CC(F)(F)CN1C(=O)CNC(=O)c1ccnc2c(NC(=O)CCOCCOCCOCCOCCOCCOCCNC(=O)[C@H](CCCCNC(=O)CN3CCN(CC(=O)[O-])CCN(CC(=O)[O-])CCN(CC(=O)[O-])CC3)NC(=O)CCCc3ccc(I)cc3)cccc12.[177Lu+3]  radiochemical stability (human serum; 4 h, 37 °C, 177Lu-labelled): 98.7 ± 1.2%
OCC1OC(n2cnc3c(NCc4ccc(Br)s4)ncnc32)C(O)C1O (centres unmarked)  fraction unbound (equilibrium dialysis; rat plasma; 0.5 µg/mL, 4 h, pH 7.4): 0.047
O=C1c2sc(-c3ccc(N4CCC(CO)CC4)nc3F)nc2CCN1c1cccnc1  parent fraction (HPLC; rhesus monkey, plasma; intravenous, 14.98 min): 0.57
CC(C)[C@H](NC(=O)[C@H](Cc1c[nH]c2ccccc12)NC(=O)[C@H](CCCNC(=N)N)NC(=O)[C@H](CCCNC(=N)N)NC(=O)[C@@H](NC(=O)[C@@H](NC(=O)[C@H](CCCNC(=N)N)NC(=O)[C@@H](NC(=O)[C@@H](NC(=O)[C@H](CCCNC(=N)N)NC(=O)[C@H](CCCNC(=N)N)NC(=O)[C@@H](NC(=O)[C@H](Cc1c[nH]c2ccccc12)NC(=O)[C@H](CCCNC(=N)N)NC(=O)[C@H](CCCNC(=N)N)NC(=O)[C@@H](NC(=O)[C@H](CCCNC(=N)N)NC(=O)[C@H](CCCNC(=N)N)NC(=O)[C@@H](NC(=O)[C@H](Cc1c[nH]c2ccccc12)NC(=O)[C@H](CCCNC(=N)N)NC(=O)[C@@H](N)CCCNC(=N)N)C(C)C)C(C)C)C(C)C)C(C)C)C(C)C)C(C)C)C(C)C)C(=O)N[C@@H](CCCNC(=N)N)C(=O)N[C@@H](CCCNC(=N)N)C(=O)O  sodium (CD1 mouse, urine; intravenous, 15 mg/kg, 6 h, [14C]-labelled compound): < 100 mEq/L
CN1CCCNC(=O)c2cccc(c2)C(=O)NCCCN(C)CCCNc2cccc3c2C(=O)c2cccc(c2C3=O)NCCC1  uric acid (nude mice, serum; dose not given, 10 days): 5.9 ± 0.3 mg/dL
CCCCCCCOc1ccc(CC[C@](N)(CO)COP(=O)(O)O)cc1C(F)(F)F  renal clearance (healthy men, urine and plasma; oral, 0.125 mg once daily, day 21, fed state): 0.00733 mL/min
O=C(O)CCCOc1ccc([18F])cc1-c1cc(-c2ccccc2C(F)(F)F)n(-c2ccccc2)n1  absorbed radiation dose (OLINDA/EXM extrapolation from mouse; human adult, gallbladder wall): 10.9 µGy/MBq
[123I]c1ccc2nc(-c3ccc(-n4ccnn4)nc3)cn2c1  tracer uptake (male Wistar rat, liver; intravenous, 4 MBq, 24 h): 0.032 %ID/g
O=C1c2sc(-c3ccc(N4CCC(F)C4)nc3F)nc2CCN1c1cccnc1 (centres unmarked)  parent fraction (HPLC; rhesus monkey, plasma; intravenous, 30.02 min): 0.247
CCCCN1C(=O)c2cccc3c(NCCCCCCN4CCOCC4)ccc(c23)C1=O  Stokes shift (DMF): 83 nm
O=C1C2CC3CC1CC(C(=O)N1CCN(c4ccc([N+](=O)[O-])c5ncccc45)CC1)(C3)C2  clearance (ICR mice male, plasma; intravenous, 1 mg/kg): 118 mL/min/kg
[11CH3]N1CCC(NC(=O)c2cc(-c3c(O)cc(O)cc3Oc3ccc([N+](=O)[O-])cc3)on2)CC1  standardized uptake value (healthy female Wistar rats, kidneys; intravenous, 10 min): 12.5 ± 1.6 g/mL
Cn1cnc([N+](=O)[O-])c1Sc1ccccc1C(=O)NCCC(N)=O  remaining compound (LC-MS/MS; CD-1 mouse, CD-1 mouse blood; 1 µM, 90 min): 10.1%
O=C(Nc1cnccc1-c1ccc([18F])cc1)c1ccnc(NC(=O)C2CC2)c1  SUV (ex vivo gamma counting; GSK-3β transgenic mice, late-stage, large intestine; intravenous, 120 min, mean, P-gp inhibitor pretreatment, with: tariquidar 15 mg/kg iv): 2.11
COCC1CN(C2CCN(c3cc(OC)c(Nc4ncc(Br)c(Nc5ccc6c(c5P(C)(C)=O)OCCO6)n4)cc3C)CC2)C1  AUC(0-t) (EGFR-mutant NSCLC patients, plasma; oral, 150 mg single dose, geometric mean): 15300 ng·h/mL
C=C(NC(=O)c1csc(-c2nc3c(cc2O)-c2nc(cs2)C(=O)NC(C(C)O)C(=O)NC(=C(C)OC)c2nc(cs2)C(=O)NC2c4nc(cs4)C(=O)NC(COC(=O)c4c5c6c(cccc6n4O)COC(=O)C(OC4CC(C)(O)C(N(C)C)C(C)O4)C2OC5)c2nc-3cs2)n1)C(N)=O (centres unmarked)  volume of distribution (cynomolgus monkey, female, plasma; intravenous infusion, 9 mg/kg single dose): 2.04 L/kg
C=C1CC[C@H](OCCCNC(=O)CCOCCOCCOCCOCCOCCOCCOCCOCCOCCOCCOCCOCCOCCOCCOCCOCCOCCOCCOCCOCCOCCOCCOCCOCCOCCOCCOCCOCCOCCOCCOCCOCCOCCOCCOCCOCCNC(=O)CCN2C(=O)CC(SC[C@H](NC(=O)[C@H](Cc3ccccc3)NC(=O)[C@H](CC(N)=O)NC(=O)[C@H](Cc3c[nH]cn3)NC(=O)[C@@H](NC(=O)[C@H](CC(=O)O)NC(=O)[C@H](CCC(N)=O)NC(=O)[C@H](CC(C)C)NC(=O)[C@H](CCCCN)NC(=O)[C@H](CCCCN)NC(=O)[C@H](CCCNC(=N)N)NC(=O)[C@H](CC(C)C)NC(=O)[C@H](Cc3c[nH]c4ccccc34)NC(=O)[C@H](CCC(=O)O)NC(=O)[C@@H](NC(=O)[C@H](CCCNC(=N)N)NC(=O)[C@H](CCC(=O)O)NC(=O)[C@H](CCSC)NC(=O)[C@H](CO)NC(=O)[C@H](CC(N)=O)NC(=O)[C@H](CC(C)C)NC(=O)[C@H](Cc3c[nH]cn3)NC(=O)[C@H](CCCCN)NC(=O)CNC(=O)[C@H](CC(C)C)NC(=O)[C@H](CC(N)=O)NC(=O)[C@H](Cc3c[nH]cn3)NC(=O)[C@H](CCSC)NC(=O)[C@H](CC(C)C)NC(=O)[C@H](CCC(N)=O)NC(=O)[C@@H](NC(=O)[C@H](CCC(=O)O)NC(=O)[C@H](CO)NC(=O)[C@@H](NC(=O)[C@@H](N)CO)C(C)C)[C@@H](C)CC)C(C)C)C(C)C)C(=O)O)C2=O)C/C1=C/C=C1\CCC[C@]2(C)[C@@H]([C@H](C)CCCC(C)(C)O)CC[C@@H]12 (some centres unmarked)  Tmax (male cynomolgus monkey, plasma; intravenous, 0.02 mg/kg, single dose): 0.19 h
CCCCN1C(=O)c2cccc3c(NCCCCCN4CCOCC4)ccc(c23)C1=O  fluorescence quantum yield (toluene): 1
N#C[C@@H]1CC(F)(F)CN1C(=O)CNC(=O)c1ccnc2c(NC(=O)C(CCCCNC(=O)CCOCCOCCOCCOCCOCCOCCNC(=O)CN3CCN(CC(=O)[O-])CCN(CC(=O)[O-])CCN(CC(=O)[O-])CC3)NC(=O)CCCc3ccc(I)cc3)cccc12.[68Ga+3] (some centres unmarked)  radiochemical stability (human serum; 30 min, 37 °C, 68Ga-labelled): 99.05 ± 0.2%
C/C(N)=N/C(=N\S(=O)(=O)c1ccc(C(F)(F)F)cc1)N1C[C@H](c2ccccc2)C(c2ccc(Cl)cc2)=N1  Tmax (Beagle dog, plasma; oral, 6 mg/kg): 3 h
O=C(Nc1cnccc1-c1ccc([18F])nc1)c1ccnc(NC(=O)C2CC2)c1  SUV (mice, transgenic, GSK-3β, early-stage, feces; intravenous, dose not given, 120 min): 8.82
CC(C)(O)c1ncc([S@](N)(=O)=NC(=O)Nc2c3c(cc4c2CCC4)CCC3)s1  subjects with TEAEs (measured: skin, subcutaneous tissue disorders; healthy human; oral, dose not given, 14 days, all active multiple doses pooled): 43%
C=CC(=O)Nc1cc(Nc2nccc(-c3c[nH]c4ccccc34)n2)c(OC)cc1N(C)CCN(C)C  recovery (storage stability; human plasma; 72 h, on ice, low QC level): 73.4%
COc1ccc2c(c1)CCn1c[n+]3c(c1-2)-c1ccc(OC)cc1CC3  Monocytes (female NSG mice, blood; 6 mg/kg, day 7, 5 days per week): 12.5 ± 0.84%
CC(=O)N([O-])CCCCCNC(=O)CCC(=O)N([O-])CCCCCNC(=O)CCC(=O)N([O-])CCCCCN.[89Zr+4]  intact complex (radio-TLC; aqueous buffer; 3 d, pH 8.5, 37 °C, 89Zr-labelled complex, with: DTPA 100-fold excess): 98.4 ± 1.7%
CC(C)C[C@H](NC(=O)[C@@H](CCCCNC(=O)[C@@H](Cc1ccccc1)NC(=O)CCCCCNC(=O)CN1CCN(CC(=O)O)CCN(CC(=O)O)CCN(CC(=O)O)CC1)NC(=O)[C@H](Cc1ccc(O)cc1)NC(=O)[C@H](CO)NC(=O)[C@H](Cc1c[nH]c2ccccc12)NC(=O)[C@H](Cc1c[nH]cn1)NC(=O)[C@@H]1CCC(=O)N1)C(=O)N[C@@H](CCCNC(=N)N)C(=O)N1CCC[C@H]1C(=O)NCC(N)=O [indium-111 labelled]  tissue uptake (female athymic nude mice, spleen; intravenous, 0.037 MBq, 1 h): 0.21 ± 0.1 %ID/g
CC[n+]1cccc2cc(/C=N/NC(=O)c3cccc(C(=O)N/N=C/c4ccc5c(ccc[n+]5CC)c4)n3)ccc21  ΔTm (MYC parallel G4 DNA; FRET melting; 1 µM, DNA 0.2 µM, with: duplex DNA competitor 10 µM): 8.7 ± 0.2 °C
CN(Cc1cc(C2CC2)on1)C(=O)c1cccc(-c2ccc(F)cc2)c1  remaining compound (male ICR/CD-1 mouse, liver microsomes; 2 µM, 15 min, pH 7.5, with: 1-aminobenzotriazole 500 µM, preincubated 30 min): 82%
CCCCN1C(=O)c2cccc3c(NCCCN4CCOCC4)ccc(c23)C1=O  Stokes shift (toluene): 67 nm
COc1cccc(OC)c1-c1cc(C(=O)NC2(C(=O)O)C3CC4CC(C3)CC2C4)nn1-c1ccc(C(=O)N(C)CCOCCN(C)C(=O)[C@H](CCCCNC(=O)[C@H](CC(C)C)NC(=O)C2OC2C(=O)O)NC(=O)CN2CCN(CC(=O)[O-])CCN(CC(=O)[O-])CCN(CC(=O)[O-])CC2)cc1C(C)C.[177Lu+3] (mixture of isomers)  tumour-to-stomach ratio (mouse HT-29 xenograft; 72 h, biodistribution; reference: tumour over stomach): 35.2
O=C(N/N=C/c1ccc(C[n+]2ccccc2)cc1)c1cc(C(=O)N/N=C/c2ccc(C[n+]3ccccc3)cc2)ncn1  ΔTm (hp2 hairpin duplex DNA; FRET melting; 1 µM): 0.2 ± 0.2 °C
Fc1cccc(COc2ccc(Nc3ncnc4ccc(-c5ccc(N6CCNCC6)cc5)cc34)cc2Cl)c1  EC50 (Leishmania major; intracellular amastigote growth, luciferase; RAW264.7 macrophages): 8.6 µM
O=C(C1CCN(c2nnnn2-c2ccccc2)CC1)N1CCCc2ccccc21  C0 (male Sprague-Dawley rat, plasma; intravenous, 1 mg/kg): 2070 ng/mL
COc1ccc2cc3[n+](cc2c1OCCCOC(=O)c1cscn1)CCc1cc2c(cc1-3)OCO2  kidney and heart toxicity markers (measured: urea nitrogen, creatinine, CK-MB, cTnT; C57BL/6 mouse; dose not given, 14 weeks): no effect

Excerpt of the above:
COCC1CN(C2CCN(c3cc(OC)c(Nc4ncc(Br)c(Nc5ccc6c(c5P(C)(C)=O)OCCO6)n4)cc3C)CC2)C1  AUC(0-t) (EGFR-mutant NSCLC patients, plasma; oral, 150 mg single dose, geometric mean): 15300 ng·h/mL
C=C(NC(=O)c1csc(-c2nc3c(cc2O)-c2nc(cs2)C(=O)NC(C(C)O)C(=O)NC(=C(C)OC)c2nc(cs2)C(=O)NC2c4nc(cs4)C(=O)NC(COC(=O)c4c5c6c(cccc6n4O)COC(=O)C(OC4CC(C)(O)C(N(C)C)C(C)O4)C2OC5)c2nc-3cs2)n1)C(N)=O (centres unmarked)  volume of distribution (cynomolgus monkey, female, plasma; intravenous infusion, 9 mg/kg single dose): 2.04 L/kg
C=C1CC[C@H](OCCCNC(=O)CCOCCOCCOCCOCCOCCOCCOCCOCCOCCOCCOCCOCCOCCOCCOCCOCCOCCOCCOCCOCCOCCOCCOCCOCCOCCOCCOCCOCCOCCOCCOCCOCCOCCOCCOCCOCCNC(=O)CCN2C(=O)CC(SC[C@H](NC(=O)[C@H](Cc3ccccc3)NC(=O)[C@H](CC(N)=O)NC(=O)[C@H](Cc3c[nH]cn3)NC(=O)[C@@H](NC(=O)[C@H](CC(=O)O)NC(=O)[C@H](CCC(N)=O)NC(=O)[C@H](CC(C)C)NC(=O)[C@H](CCCCN)NC(=O)[C@H](CCCCN)NC(=O)[C@H](CCCNC(=N)N)NC(=O)[C@H](CC(C)C)NC(=O)[C@H](Cc3c[nH]c4ccccc34)NC(=O)[C@H](CCC(=O)O)NC(=O)[C@@H](NC(=O)[C@H](CCCNC(=N)N)NC(=O)[C@H](CCC(=O)O)NC(=O)[C@H](CCSC)NC(=O)[C@H](CO)NC(=O)[C@H](CC(N)=O)NC(=O)[C@H](CC(C)C)NC(=O)[C@H](Cc3c[nH]cn3)NC(=O)[C@H](CCCCN)NC(=O)CNC(=O)[C@H](CC(C)C)NC(=O)[C@H](CC(N)=O)NC(=O)[C@H](Cc3c[nH]cn3)NC(=O)[C@H](CCSC)NC(=O)[C@H](CC(C)C)NC(=O)[C@H](CCC(N)=O)NC(=O)[C@@H](NC(=O)[C@H](CCC(=O)O)NC(=O)[C@H](CO)NC(=O)[C@@H](NC(=O)[C@@H](N)CO)C(C)C)[C@@H](C)CC)C(C)C)C(C)C)C(=O)O)C2=O)C/C1=C/C=C1\CCC[C@]2(C)[C@@H]([C@H](C)CCCC(C)(C)O)CC[C@@H]12 (some centres unmarked)  Tmax (male cynomolgus monkey, plasma; intravenous, 0.02 mg/kg, single dose): 0.19 h
